Assay results collected from several papers.
Lines come from different studies, so protocols differ.
TDP1: Tyrosyl-DNA phosphodiesterase 1 (TDP1, Homo sapiens, UniProt Q9NUW8)
Chain of UniProt Q9NUW8 (whole entry, looked up): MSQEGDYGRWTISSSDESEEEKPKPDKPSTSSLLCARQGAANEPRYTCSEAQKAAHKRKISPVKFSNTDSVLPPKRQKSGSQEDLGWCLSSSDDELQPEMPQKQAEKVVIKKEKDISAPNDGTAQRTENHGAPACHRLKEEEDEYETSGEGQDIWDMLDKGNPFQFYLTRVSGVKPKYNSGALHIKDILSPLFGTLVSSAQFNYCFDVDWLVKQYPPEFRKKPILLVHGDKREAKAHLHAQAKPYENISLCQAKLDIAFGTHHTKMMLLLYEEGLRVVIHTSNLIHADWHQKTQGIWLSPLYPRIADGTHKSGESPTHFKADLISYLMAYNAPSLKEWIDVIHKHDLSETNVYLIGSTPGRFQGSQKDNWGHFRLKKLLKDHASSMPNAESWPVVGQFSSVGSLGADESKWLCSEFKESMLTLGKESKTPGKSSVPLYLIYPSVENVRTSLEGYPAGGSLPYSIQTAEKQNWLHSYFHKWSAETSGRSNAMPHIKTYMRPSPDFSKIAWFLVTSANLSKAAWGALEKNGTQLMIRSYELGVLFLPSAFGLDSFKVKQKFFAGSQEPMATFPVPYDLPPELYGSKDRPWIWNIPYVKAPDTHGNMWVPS

Compound | tested on | test | test system | setting | quantity | result
CC(=O)N[C@@H](CC[S+](C)[Ru-4]123([S+](C)CC[C@H](NC(C)=O)C(=O)O)[n+]4ccc5ccccc5c4Nc4cccc([n+]41)-c1cccc([n+]12)Nc1c2ccccc2cc[n+]13)C(=O)[O-].F[P-](F)(F)(F)(F)F (some centres unmarked) | MRC-5 | photocytotoxicity, SRB |  | 6 h, added: green light | EC50 | < 1000 nM
C=C(NC(=O)c1csc(-c2ccc(NC(=O)CCCCCBr)cc2)n1)C(=O)NC(=C)C(=O)OC | H-MESO-1 | cell viability, crystal violet |  | 3 h exposure, 48 h total | EC50 | 1400 nM
Cc1cc(C)nc(NC(=S)N2CCN(c3ccncc3)CC2)c1 | HCC70 | cell viability, CellTiter-Glo |  | 4 days | EC50 | > 100000 nM
N#Cc1[nH]nnc1-c1cccc(Oc2ccccc2)c1 | CHO cells expressing NaCT | TCA cycle acceleration, activator, [14C]citric acid metabolism |  |  | EC50 | 330 nM
COc1ccc(CC[C@H]2OC(=O)[C@@H]3CCCCN3C(=O)C(=O)C(C)(C)COC(=O)/C=C/CCN(C)C(=O)[C@H](CC(C)C)N(C)C(=O)[C@@H]3CCCN3C(=O)[C@H](Cc3ccccc3)N(C)C(=O)[C@H](c3ccccc3)NC(=O)CCC(=O)Nc3cccc2c3)cc1OC | human red blood cells | [3H]adenosine uptake, inhibitor |  |  | EC50 | 45.2 nM
O=c1[nH]nc(OCCCc2ccc(Cl)cc2)c(NCc2cccnc2)c1Br | HEK-293T ATF4-FLuc reporter | reporter gene, activator, measured: ATF4-FLuc |  |  | EC50 | 2400 nM
O=C(O)c1ccc(Nc2c(-c3ccccc3)nc3ccc(CON=Cc4c(C=Cc5ccoc5)oc5ccc(O)cc45)cn23)cc1 (mixture of isomers) | TDP1 | enzyme activity, inhibitor |  | 100 µM, unpurified compound | inhibition | 47.9%
C=C(NC(=O)C(=C)NC(=O)c1csc(C2=N[C@@H]3c4csc(n4)[C@H]4NC(=O)c5csc(n5)[C@H]([C@](C)(O)[C@@H](C)O)NC(=O)[C@H]5CSC(=N5)/C(=C/C)NC(=O)[C@H]([C@@H](C)O)NC(=O)c5csc(n5)[C@]3(CC2)NC(=O)[C@H](C)NC(=O)C(=C)NC(=O)[C@H](C)NC(=O)[C@H]([C@@H](C)CC)N[C@@H]2C=Cc3c([C@H](C)O)cc(nc3[C@H]2O)C(=O)O[C@@H]4C)n1)C(N)=O | H-MESO-1 | cell viability, crystal violet |  | 3 h exposure, 48 h total | EC50 | 4600 nM
C=CC(=O)N1[C@H](c2ccc3c(c2)OCO3)c2[nH]c3ccccc3c2C[C@@H]1C(=O)NC1CC1 | rat DRG neurons | neurite degeneration |  | 48 h, added: vincristine 40 nM | EC50 | 282 nM
CC[C@H]1CN([C@@H](CC)c2ccc(C(F)(F)F)cc2)[C@H](CC)CN1c1nc(=O)n(C)c2ccc(C#N)nc12 | CD4+ T cells | phospho-ERK amplification, flow cytometry | human whole blood | added: suboptimal anti-CD3 | EC50 | 8 nM
CN1CC[C@@H](COc2cnc(C#N)cc2-c2ccn3nc(NC(=O)C4CC4)cc3c2)C1 | wild-type mouse BMDC | IL-10 release, inducer |  | 4 h, added: LPS | EC50 | 950 nM
C=C(NC(=O)c1csc(-c2cccnc2)n1)C(=O)NC(=C)C(=O)OC | H-MESO-1 | cell viability, crystal violet |  | 6 h exposure, 48 h total | EC50 | 6200 nM
N#CCCn1cc(C=NOCc2ccc(-c3nc4cc(-c5ccccc5)ccn4c3Nc3ccc(C(=O)O)cc3)cc2)c(-c2cccc(Br)c2)n1 (mixture of isomers) | TDP1 | enzyme activity, inhibitor |  | 100 µM, unpurified compound | inhibition | 47.4%
CCc1cnc(N2CCC(c3nc(COc4ccc(-n5cnnn5)cc4)cs3)CC2)nc1 | HEK-293T ATF4-FLuc reporter | reporter gene, activator, measured: ATF4-FLuc |  | 8 h | EC50 | 3600 nM

For quick reference, copied from above:
Compound | tested on | test | test system | setting | quantity | result
O=c1[nH]nc(OCCCc2ccc(Cl)cc2)c(NCc2cccnc2)c1Br | HEK-293T ATF4-FLuc reporter | reporter gene, activator, measured: ATF4-FLuc |  |  | EC50 | 2400 nM
O=C(O)c1ccc(Nc2c(-c3ccccc3)nc3ccc(CON=Cc4c(C=Cc5ccoc5)oc5ccc(O)cc45)cn23)cc1 (mixture of isomers) | TDP1 | enzyme activity, inhibitor |  | 100 µM, unpurified compound | inhibition | 47.9%
